Assay results from different studies.
Compare with care: the assays were run in different laboratories.
Organism: Klebsiella pneumoniae

CCCCCCCCn1cc[n+](CCCCCCOc2cc(OCCCCCC[n+]3ccn(CCCCCCCC)c3)cc(OCCCCCC[n+]3ccn(CCCCCCCC)c3)c2)c1.[Br-].[Br-].[Br-]
MIC (ATCC 4352): 1 µM

CC[C@H]1OC(=O)[C@H](C)[C@@H](OC(=O)Cc2c(F)cccc2F)[C@H](C)[C@@H](O[C@@H]2O[C@H](C)C[C@H](N(C)C)[C@H]2O)[C@](C)(OC)C[C@@H](C)C(=O)[C@H](C)[C@@H](O)[C@]1(C)O
MIC (microbial growth; ATCC700603): > 32 µg/mL

CC1(C)[C@H](NC(=O)/C(=N\OCc2c(Cl)cccc2Cl)c2csc(N)n2)C(=O)N1OS(=O)(=O)O
MIC (agar dilution; ATCC 700603, ESBL-producing): 64 µg/mL

CCCCCCCCCCn1cc[n+](CCCCCCCCCCOc2cc(OCCCCCCCCCC[n+]3ccn(CCCCCCCCCC)c3)cc(OCCCCCCCCCC[n+]3ccn(CCCCCCCCCC)c3)c2)c1.[Br-].[Br-].[Br-]
MIC (ATCC 4352): 125 µM

CC1(C)C(NC(=O)C(=NOC2(C(=O)O)CCC2)c2csc(N)n2)C(=O)N1OS(=O)(=O)O (stereo not drawn)
MIC (agar dilution; 16-14, ESBL-producing): 0.125 µg/mL

CN[C@H](CC(C)C)C(=O)N[C@H]1C(=O)N[C@@H](CC(N)=O)C(=O)N[C@H]2C(=O)N[C@H]3C(=O)N[C@H](C(=O)N[C@H](C(=O)N[C@@H](CCCNC(=N)N)C(N)=O)c4cc(O)cc(O)c4-c4cc3ccc4O)[C@H](O)c3ccc(c(Cl)c3)Oc3cc2cc(c3O[C@@H]2O[C@H](CO)[C@@H](O)[C@H](O)[C@H]2O[C@H]2C[C@](C)(NCc3ccc(OCc4cn(CC(=O)N[C@H](C(=O)N[C@@H](CCN)C(=O)N[C@H]5CCNC(=O)[C@H]([C@@H](C)O)NC(=O)[C@H](CCN)NC(=O)[C@H](CCN)NC(=O)[C@H](CC(C)C)NC(=O)[C@@H](CC(C)C)NC(=O)[C@H](CCN)NC5=O)[C@@H](C)O)nn4)c(OC)c3)[C@H](O)[C@H](C)O2)Oc2ccc(cc2Cl)[C@H]1O
MIC (broth microdilution; ATCC 27736, cation-adjusted Mueller-Hinton broth; 18 to 20 h, 37 °C, 0.002% polysorbate 80): 16 µg/mL

Cc1c(CN(C)C(=O)/C=C/c2cnc3c(c2)CC(N)C(=O)N3)oc2ccccc12 (stereo not drawn)
MIC (broth microdilution; AR-0555): 32 µg/mL

CC[C@H](C)[C@H](NC(=O)[C@@H](CCCNC(=N)N)NC(=O)[C@H](CCCNC(=N)N)NC(=O)[C@@H]1CCCN1C(=O)[C@@H]1CCCN1C(=O)[C@H](CCCCN)NC(=O)[C@@H]1CCCN1C(=O)[C@H](CCCNC(=N)N)NC(=O)[C@@H]1CCCN1C(=O)[C@H](CC(C)C)NC(=O)[C@H](Cc1ccc(O)cc1)NC(=O)[C@@H]1CCCN1C(=O)[C@@H]1CCCN1C(=O)[C@H](CCCCN)NC(=O)[C@H](CC(=O)O)NC(=O)[C@@H](N)C(C)C)C(=O)N[C@@H](Cc1ccc(O)cc1)C(=O)N[C@@H](CC(N)=O)C(=O)N[C@H](CCCNC(=N)N)C(N)=O
MIC (broth microdilution; DSM 681; 18 h, 37 °C, 25% MHB2): 8 µg/mL

CCCCCCn1cc[n+](CCCCCCCCOc2cc(OCCCCCCCC[n+]3ccn(CCCCCC)c3)cc(OCCCCCCCC[n+]3ccn(CCCCCC)c3)c2)c1.[Br-].[Br-].[Br-]
MIC (ATCC 4352): 1 µM

C#CCO/N=C(\C(=O)N[C@@H]1C(=O)N(OS(=O)(=O)O)C1(C)C)c1nsc(N)n1
MIC (agar dilution; ATCC 700603, ESBL-producing): > 64 µg/mL

c1ccc(CN2CCOCCOCCN(CCCCCCCCN3CCOCCOCCN(CCCCCCCCN4CCOCCOCCN(Cc5ccccc5)CCOCCOCC4)CCOCCOCC3)CCOCCOCC2)cc1
MIC (ATCC BAA-2146): 200 µM

CCCCCCCC(=O)N[C@@H](CCN)C(=O)N[C@H](C(=O)N[C@@H](CCN)C(=O)N[C@H]1CCNC(=O)[C@H]([C@@H](C)O)NC(=O)[C@H](CCN)NC(=O)[C@H](CCN)NC(=O)[C@H](CC(C)C)NC(=O)[C@@H](Cc2ccccc2)NC(=O)[C@H](CCN)NC1=O)[C@@H](C)O
MIC (broth microdilution; ATCC 19606): 0.125 to 0.25 µg/mL

CCCCCCCCCCCC[N+](C)(C)CCCCCCOc1cc(OCCCCCC[N+](C)(C)CCCCCCCCCCCC)cc(OCCCCCC[N+](C)(C)CCCCCCCCCCCC)c1.[Br-].[Br-].[Br-]
MIC (ATCC 4352): 16 µM

CC1(C)[C@H](NC(=O)/C(=N\OCCN)c2csc(N)n2)C(=O)N1OS(=O)(=O)O
MIC (agar dilution; 16-14, ESBL-producing): 16 µg/mL

CC[C@H]1OC(=O)[C@H](C)[C@@H](OC(=O)Cc2ccc(Cl)cc2)[C@H](C)[C@@H](O[C@@H]2O[C@H](C)C[C@H](N(C)C)[C@H]2O)[C@](C)(OC)C[C@@H](C)C(=O)[C@H](C)[C@@H](O)[C@]1(C)O
MIC (microbial growth; ATCC700603): > 32 µg/mL

CC[C@H](C)[C@H](NC(=O)[C@H](CCCNC(=N)N)NC(=O)[C@H](CC(=O)O)NC(=O)[C@H](CCCNC(=N)N)NC(=O)[C@H](CC(C)C)NC(=O)[C@H](CC(N)=O)NC(=O)[C@H](CCCNC(=N)N)NC(=O)[C@@H](N)Cc1ccccc1)C(=O)N[C@@H](CCCCN)C(=O)N[C@@H](CC(N)=O)C(=O)N[C@@H](CCCCN)C(=O)N[C@@H](Cc1ccccc1)C(=O)N[C@@H](CCC(=O)O)C(=O)N[C@@H](CC(N)=O)C(=O)N[C@@H](C)C(=O)N[C@@H](CC(C)C)C(=O)N[C@@H](CCCCN)C(=O)N[C@@H](CC(N)=O)C(=O)N[C@H](C(=O)N[C@H](C(=O)N[C@@H](CC(N)=O)C(=O)N[C@@H](CCCCN)C(=O)N[C@@H](CC(C)C)C(=O)N[C@@H](Cc1ccccc1)C(=O)N1CCC[C@H]1C(=O)O)[C@@H](C)CC)C(C)C
MIC (broth microdilution; ATCC 43816; 16 h, 37 °C, cation-adjusted Mueller-Hinton broth): 64 µg/mL

CC[C@H]1OC(=O)[C@H](C)[C@@H](OC(=O)Cc2ccccc2[N+](=O)[O-])[C@H](C)[C@@H](O[C@@H]2O[C@H](C)C[C@H](N(C)C)[C@H]2O)[C@](C)(OC)C[C@@H](C)C(=O)[C@H](C)[C@@H](O)[C@]1(C)O
MIC (microbial growth; ATCC700603): > 32 µg/mL

CCCCCCCC[N+](C)(C)CCCCCCOc1cc(OCCCCCC[N+](C)(C)CCCCCCCC)cc(OCCCCCC[N+](C)(C)CCCCCCCC)c1.[Br-].[Br-].[Br-]
MIC (ATCC 4352): 1 µM

CN[C@H](CC(C)C)C(=O)N[C@H]1C(=O)N[C@@H](CC(N)=O)C(=O)N[C@H]2C(=O)N[C@H]3C(=O)N[C@H](C(=O)N[C@H](C(=O)NCc4cn(CCCCC(=O)N[C@H](C(=O)N[C@@H](CCN)C(=O)N[C@H]5CCNC(=O)[C@H]([C@@H](C)O)NC(=O)[C@H](CCN)NC(=O)[C@H](CCN)NC(=O)[C@H](CC(C)C)NC(=O)[C@@H](CC(C)C)NC(=O)[C@H](CCN)NC5=O)[C@@H](C)O)nn4)c4cc(O)cc(O)c4-c4cc3ccc4O)[C@H](O)c3ccc(c(Cl)c3)Oc3cc2cc(c3O[C@@H]2O[C@H](CO)[C@@H](O)[C@H](O)[C@H]2O[C@H]2C[C@](C)(N)[C@H](O)[C@H](C)O2)Oc2ccc(cc2Cl)[C@H]1O
MIC (broth microdilution; ATCC 13883, cation-adjusted Mueller-Hinton broth; 18 to 20 h, 37 °C, 0.002% polysorbate 80): 32 µg/mL

CC1(C)[C@H](NC(=O)/C(=N\OC2(C(=O)O)CCCC2)c2csc(N)n2)C(=O)N1OS(=O)(=O)O
MIC (agar dilution; 16-14, ESBL-producing): 0.25 µg/mL

CCCCCCn1cc[n+](CCCCOc2cc(OCCCC[n+]3ccn(CCCCCC)c3)cc(OCCCC[n+]3ccn(CCCCCC)c3)c2)c1.[Br-].[Br-].[Br-]
MIC (ATCC 4352): 63 µM

C=CCO/N=C(\C(=O)N[C@@H]1C(=O)N(OS(=O)(=O)O)C1(C)C)c1csc(N)n1
MIC (agar dilution; ATCC 700603, ESBL-producing): 16 µg/mL

CC(C)C[C@@H]1NC(=O)[C@@H](CC(C)C)NC(=O)[C@H](CCN)NC(=O)[C@@H](NC(=O)[C@H](CCN)NC(=O)[C@@H](N)[C@@H](C)O)CCNC(=O)[C@H]([C@@H](C)O)NC(=O)[C@H](CCN)NC(=O)[C@H](CCN)NC1=O
MIC (broth microdilution; ATCC 27736, cation-adjusted Mueller-Hinton broth; 18 to 20 h, 37 °C, 0.002% polysorbate 80): > 128 µg/mL

C=CCO/N=C(\C(=O)N[C@@H]1C(=O)N(S(=O)(=O)O)[C@H]1C)c1csc(N)n1
MIC (agar dilution; 16-14 ESBL): 8 µg/mL

COc1c(NC(=O)c2ccc(NC(=O)[C@H](Cc3c[nH]nn3)NC(=O)c3ccc(NC(=O)/C(C)=C/c4ccc(O)cc4)cc3)cc2)ccc(C(=O)Nc2ccc(C(=O)O)cc2)c1O
MIC (broth microdilution; ciprofloxacin-sensitive): 32 µg/mL

C#CCNC(=O)C1(O/N=C(\C(=O)N[C@@H]2C(=O)N(OS(=O)(=O)O)C2(C)C)c2csc(N)n2)CC1
MIC (agar dilution; ATCC 700603 ESBL): 16 µg/mL

CC(C)C[C@@H]1NC(=O)[C@@H](CC(C)C)NC(=O)[C@H](CCN)NC(=O)[C@@H](NC(=O)[C@H](CCN)NC(=O)[C@@H](NC(=O)CCOCCOCCOCCN=[N+]=[N-])[C@@H](C)O)CCNC(=O)[C@H]([C@@H](C)O)NC(=O)[C@H](CCN)NC(=O)[C@H](CCN)NC1=O
MIC (broth microdilution; ATCC 27736, cation-adjusted Mueller-Hinton broth; 18 to 20 h, 37 °C, 0.002% polysorbate 80): 64 µg/mL
